Experimental data collected from several papers.
A part holds a random share of what one study measured.

Series 1
Target: Replicase polyprotein 1ab, polymerase (rep, Severe acute respiratory syndrome coronavirus 2, UniProt P0DTD1)
Observed: enzyme activity
Mode: inhibitor
Concentration: 20 µM
`NS(=O)(=O)NCc1csc2ccccc12` has an inhibition of 0.21%.
For `CCCCCC(=O)O[C@]1(C(C)=O)CC[C@H]2[C@@H]3CCC4=CC(=O)CC[C@]4(C)[C@H]3CC[C@@]21C`, the inhibition was 16.1%.
`CCOc1ccc(-c2ccc(Cn3c(CC(C)(C)C(=O)O)c(SC(C)(C)C)c4cc(OCc5ccc(C)cn5)ccc43)cc2)cn1` gave an inhibition of 7.14%.
The inhibition of `c1cnc2cc3c(cc2n1)[C@@H]1CNC[C@H]3C1` is reported as -1.89%.
`Nc1ccc(S(=O)(=O)Nc2ccnn2-c2ccccc2)cc1` has an inhibition of 23.4%.
With `CC(=O)Oc1cc(C(C)C)c(OCCN(C)C)cc1C` the inhibition was -3.52%.
The inhibition of `O=C(CCc1ccncc1)NNC(=O)N1Cc2ccccc2Oc2ccc(Cl)cc21` is reported as 1.56%.
`CCCC[C@H](C)C[C@H](O)/C=C/[C@H]1[C@H](O)CC(=O)[C@@H]1CCCC/C=C/C(=O)O` gave an inhibition of 0.4%.
The inhibition of `C/C(=N\N=C(N)N)c1cc(NC(=O)CCCCCCCCC(=O)Nc2cc(/C(C)=N/N=C(N)N)cc(/C(C)=N/N=C(N)N)c2)cc(/C(C)=N/N=C(N)N)c1` is reported as 94.5%.
With `CC(=O)N[C@H]1CSSC[C@@H](C(N)=O)NC(=O)[C@H](C(C)C)NC(=O)[C@H](C)NC(=O)[C@H](Cc2c[nH]cn2)NC1=O` the inhibition was 0.11%.
`COc1ccc(CC2NCCc3cc(OC)c(OC)cc32)cc1OC` (centres unmarked) gave an inhibition of -1.44%.
`COc1cc(C#N)ccc1S(=O)(=O)Nc1ccc2c(c1)cc(C)c(=O)n2C` has an inhibition of 3.64%.
`CNC(=O)c1ccc(-c2cnc3ncc(Cc4ccc5ncccc5c4)n3n2)cc1F` has an inhibition of -2.07%.
`O=C1CCCN1CC#CCN1CCCC1` has an inhibition of -3.96%.
`CC(C)(C)NCC(O)COc1cccc2c1C[C@H](O)[C@H](O)C2` (mixture of isomers) gave an inhibition of 1.21%.
With `N[C@@H]1CONC1=O` the inhibition was 1.89%.
With `COc1ccc(S(=O)(=O)Nc2nc(-c3cccc([N+](=O)[O-])c3)cs2)cc1OC` the inhibition was -2.1%.
For `Cc1cc(Cl)ccc1OCCCC(=O)NO`, the inhibition was 0.81%.
`CC(=O)Oc1ccccc1C(=O)Oc1cccc(CO[N+](=O)[O-])c1` has an inhibition of 1.73%.
`CCC(CC)O[C@@H]1C=C(C(=O)O)C[C@H](N)[C@H]1NC(C)=O` has an inhibition of -3.46%.
With `COC[C@@H](NC(C)=O)C(=O)NCc1ccccc1` the inhibition was -4.36%.
For `Cc1nc2ccc(-n3ncc(C(=O)c4cc5ccccc5[nH]4)c3N)cc2[nH]1`, the inhibition was -5.63%.

Series 2
Target: RNA binding protein fox-1 homolog 2, RRM domain, GST-SBP tag (RBFOX2, Homo sapiens, UniProt O43251-10, residues 100-194)
Method: RNA Bind-n-Seq
Molecule type: RNA
Sample: in vitro
Concentration: 365 nM
Notes: natural RNA segment, single round, ends assumed
Baseline: no-protein control
Reading: higher = stronger binding
Target sequence (chain): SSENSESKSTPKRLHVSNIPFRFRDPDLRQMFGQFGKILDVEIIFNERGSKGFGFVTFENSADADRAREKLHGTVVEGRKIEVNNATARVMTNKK
`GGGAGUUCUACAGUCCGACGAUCGUUCUACUCAGUGCCAUAGAUAGACUGAGUCUUCUCUCGUAGGUUACCAUUACAUAGUAAUUUUGAUUCUGAAUUUCACAUUAAAUUAUUUGAGUUUAUACAGACCUAAAUGGAAUUCUCGGGUGCCAA`: “RBNS enrichment (R)” 0.352.
For `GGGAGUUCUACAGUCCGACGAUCGCCACCUUGGCUUCCAAUAUGGCAAGAGGGUGCUGGGAGAAGGUGAAGAUCAGUCUAAGCUGCCACGGUGAUGAGACCUUCUCAUUAUGUAACUCUUGAUGGCAUUUCCCUGGAAUUCUCGGGUGCCAA`, “RBNS enrichment (R)” read 0.892.
Under “RBNS enrichment (R)”, `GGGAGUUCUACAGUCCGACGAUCUUUGCUCCAGCCACUUUUCUUGUACAACUACGGGGAUGGACUAGAUGUCCUCUGGUCUUUUCCAUCUUCGCUUUCUAUGACUGUGGAAUAAAUGUUCAGACAGAAACUUCUGGAAUUCUCGGGUGCCAA` is recorded as 0.665.
`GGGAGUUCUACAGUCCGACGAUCGUGCCUUAUGCUUUCAUUGGACCAGCUGAAAUCACUGUAUUUAUUCAACUAGUGAUUUUUUUUUCUUUCUCACUUUAACUUAAAGAGAAUUUUAUAUGUCUUGGAAAUUUUGGAAUUCUCGGGUGCCAA`: “RBNS enrichment (R)” 1.32.
For `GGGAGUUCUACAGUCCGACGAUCUCUUACACUGUAAGCCUUGUUGCUUUGCCCCAACAAUUGUAAUUUGAUUAUAGCUAUGAGCCUUAUGGUAGACACUAUGUACCCUCUGCGGUGUAAUUGCAUUAUAGCUAUGGAAUUCUCGGGUGCCAA`, “RBNS enrichment (R)” read 0.916.
Under “RBNS enrichment (R)”, `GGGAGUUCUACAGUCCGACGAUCCUGUCAGAGCCCUGAGGGGCAUCCAGUGGGUACAGACCCAGGCGGGCAGCGAGGGAAGGAGGGAGGAGGCAUCUUCCCUGAAGCCCCCAAACUGGACCCCUUCUUCAGACUGGAAUUCUCGGGUGCCAA` is recorded as 0.277.
For `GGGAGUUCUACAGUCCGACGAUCCAUGACCCCUAGGGAGCUCUGACUGAGGAGGGAGGGUUGCUUCAGUCAGUGGCUCAGAGAUAGGGCUGGGCAGACAUCUACCUUAGGUAAAGUGGCUCCAGGGACUUAAGUGGAAUUCUCGGGUGCCAA`, “RBNS enrichment (R)” read 0.847.
Under “RBNS enrichment (R)”, `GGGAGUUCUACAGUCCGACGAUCAAGAUAUAUGCUGCUGUGAAGAUAGAUGAGUGGGUGGACCAACGCUGGGCCCACUGGAUCCUCGACAGGAAGCCACCCUGCGUGGGGACUGCAGGCACACAAAAUAAAAUUGGAAUUCUCGGGUGCCAA` is recorded as 0.556.

Series 3
Target: Interferon regulatory factor 7, full length, phosphomimetic (IRF7, Homo sapiens, UniProt Q92985, residues 1-503, S471D/S472D/S475D/S476D/S477D/S483D/S484D/S487D)
UniProt Q92985, sequence (whole entry, unmodified, looked up): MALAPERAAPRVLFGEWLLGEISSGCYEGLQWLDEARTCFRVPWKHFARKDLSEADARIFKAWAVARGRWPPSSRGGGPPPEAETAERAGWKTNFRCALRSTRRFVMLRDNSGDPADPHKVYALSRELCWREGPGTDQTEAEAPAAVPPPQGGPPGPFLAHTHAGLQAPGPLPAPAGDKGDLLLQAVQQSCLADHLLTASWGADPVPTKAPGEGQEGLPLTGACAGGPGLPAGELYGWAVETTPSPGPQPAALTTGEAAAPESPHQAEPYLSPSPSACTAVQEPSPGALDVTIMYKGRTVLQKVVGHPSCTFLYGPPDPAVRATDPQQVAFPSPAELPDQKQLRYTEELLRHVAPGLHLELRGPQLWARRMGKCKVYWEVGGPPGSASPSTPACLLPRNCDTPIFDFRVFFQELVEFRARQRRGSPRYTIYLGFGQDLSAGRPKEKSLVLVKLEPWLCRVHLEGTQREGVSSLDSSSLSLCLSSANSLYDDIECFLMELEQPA
Method: protein-binding microarray
Molecule type: double-stranded DNA, one strand shown
Sample: in vitro
Concentration: 2200 nM top
Notes: 60-bp whole probe
Added: salmon DNA 0.4 mg/ml
Baseline: random background probes
Reading: higher = stronger binding
All sequences stand within: GCCTAGCAC … GTCTTGATTCGCTTGACGCTGCTG
For `TTAGGGATCCTTATCCTTTAGTGCTAG`, “fitted relative affinity” read 0.0539 z-score.
`GTAGATTTCAGTTTCGATTAGTGCTAG` — result for “fitted relative affinity”: 8.14 z-score.
`TCATTTCTACGTCTGATACTGTGCTAG` — result for “fitted relative affinity”: 2.06 z-score.
`TTAGGACTGGGTCCCGGTTAGTGCTAG`: “fitted relative affinity” -0.643 z-score.
Under “fitted relative affinity”, `TTAGGATTCGACACTGGGTTAGTGCTA` is recorded as 0.0338 z-score.
Under “fitted relative affinity”, `TTGGGTTTCGGTATCGGTTAGTGCTAG` is recorded as 6.49 z-score.
For `TCATTATTTACTCTCTAACTGTGCTAG`, “fitted relative affinity” read 1.29 z-score.
For `GACGATATCGGGTTTCGAGGCGTGCTA`, “fitted relative affinity” read 1.19 z-score.

Series 4
Target: Histone acetyltransferase KAT6A, both winged helices, GST fusion (KAT6A, Homo sapiens, UniProt Q92794, residues 1-181)
Method: protein binding microarray
Molecule type: double-stranded DNA, one strand shown
Sample: in vitro
Concentration: not given
Notes: 8-mer, flanks averaged, mean of 2 arrays, mostly near background
Baseline: not given
Reading: higher = stronger binding
Construct (chain): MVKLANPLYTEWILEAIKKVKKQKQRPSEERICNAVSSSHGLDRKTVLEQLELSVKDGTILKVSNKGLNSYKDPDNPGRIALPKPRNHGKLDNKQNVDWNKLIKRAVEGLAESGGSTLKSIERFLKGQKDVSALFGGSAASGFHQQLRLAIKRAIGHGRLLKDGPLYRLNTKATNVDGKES
`CTAAACTC` has an E-score of -0.117.
With `CCCATAAG` the E-score was 0.00457.
`GGCCGCTA` gave an E-score of 0.284.
`GCGGTTGA` gave an E-score of 0.221.
`ATACGTTA` gave an E-score of 0.0032.
With `GAACTCCC` the E-score was -0.0718.
With `AGGCAAAA` the E-score was -0.0878.
With `AGCTCTAC` the E-score was -0.174.

Further values, each from its own experiment
For `CC(C)C[C@@H](C=O)NC(=O)[C@H](CC(C)C)NC(=O)[C@H](CC(C)C)NC(=O)OCc1ccccc1`, the EC50 was 120 nM (SARS-CoV-2; viral RNA; Vero E6).
The pseudovirus infection of `Clc1cccc(Cl)c1N=C1NCCN1` is reported as 71.6% (HEK-293T; VSV pseudotyped with SARS-CoV-2 spike; 10 µM, 16 h).
For `O=c1[nH]nc(Sc2ncc([N+](=O)[O-])s2)n1-c1ccc2c(c1)OCCO2`, the inhibition was 96.4% (Replicase polyprotein 1ab, main protease (rep, Severe acute respiratory syndrome coronavirus 2, UniProt P0DTD1); enzyme activity, inhibitor; 20 µM, primary screen).
`CS(=O)(=O)c1ccc(C(=O)Nc2ccc(Cl)c(-c3ccccn3)c2)c(Cl)c1` gave a cell number of 98.2% (HEK-293T-ACE2; concentration not given; baseline: vehicle).
